Measurements gathered from unrelated publications.
Compare with care: the assays were run in different laboratories. Numbers after ± are the reported error.
CNR2: Cannabinoid receptor 2 (CNR2, Homo sapiens, UniProt P34972)
UniProt P34972, sequence (whole entry, looked up): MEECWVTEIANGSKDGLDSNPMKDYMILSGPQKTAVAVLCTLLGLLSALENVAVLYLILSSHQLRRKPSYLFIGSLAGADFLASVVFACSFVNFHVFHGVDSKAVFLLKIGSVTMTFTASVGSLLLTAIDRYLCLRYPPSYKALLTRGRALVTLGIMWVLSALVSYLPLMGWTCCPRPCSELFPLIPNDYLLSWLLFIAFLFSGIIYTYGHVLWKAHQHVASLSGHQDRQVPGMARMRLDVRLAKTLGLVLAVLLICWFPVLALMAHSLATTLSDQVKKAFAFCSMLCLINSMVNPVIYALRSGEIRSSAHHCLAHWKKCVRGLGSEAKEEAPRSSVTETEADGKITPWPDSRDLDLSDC
Oprm1: Mu-type opioid receptor (Oprm1, Rattus norvegicus, UniProt P33535)
UniProt P33535, sequence (whole entry, looked up): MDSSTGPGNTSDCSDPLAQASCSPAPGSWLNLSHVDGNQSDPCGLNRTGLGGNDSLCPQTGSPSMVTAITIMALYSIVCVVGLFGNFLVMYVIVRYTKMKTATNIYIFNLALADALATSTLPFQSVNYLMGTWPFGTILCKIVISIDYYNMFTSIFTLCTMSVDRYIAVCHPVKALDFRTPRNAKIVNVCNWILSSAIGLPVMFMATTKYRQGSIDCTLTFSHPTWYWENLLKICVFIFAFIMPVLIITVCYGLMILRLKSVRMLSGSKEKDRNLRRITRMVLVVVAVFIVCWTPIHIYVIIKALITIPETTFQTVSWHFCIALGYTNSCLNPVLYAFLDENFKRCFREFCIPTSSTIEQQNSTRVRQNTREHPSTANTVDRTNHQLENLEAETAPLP
DRD1: D(1A) dopamine receptor (DRD1, Homo sapiens, UniProt P21728)
UniProt P21728, sequence (whole entry, looked up): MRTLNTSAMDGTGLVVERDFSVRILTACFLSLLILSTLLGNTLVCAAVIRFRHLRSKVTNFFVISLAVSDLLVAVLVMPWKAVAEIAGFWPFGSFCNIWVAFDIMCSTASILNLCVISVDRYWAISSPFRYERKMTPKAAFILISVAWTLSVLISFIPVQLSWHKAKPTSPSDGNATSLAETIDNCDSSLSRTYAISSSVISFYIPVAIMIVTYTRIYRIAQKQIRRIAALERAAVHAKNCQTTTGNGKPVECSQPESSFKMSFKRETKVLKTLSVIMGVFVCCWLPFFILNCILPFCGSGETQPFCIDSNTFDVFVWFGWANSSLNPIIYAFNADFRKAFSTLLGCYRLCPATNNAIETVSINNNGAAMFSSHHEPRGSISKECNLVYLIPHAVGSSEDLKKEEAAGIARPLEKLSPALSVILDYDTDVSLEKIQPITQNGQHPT
Gabrg2/Gabra5 with β3 subunit: Gabrg2/Gabra5, with β3 subunit (Rattus norvegicus, UniProt P18508+P19969)
UniProt P18508, sequence (whole entry, looked up): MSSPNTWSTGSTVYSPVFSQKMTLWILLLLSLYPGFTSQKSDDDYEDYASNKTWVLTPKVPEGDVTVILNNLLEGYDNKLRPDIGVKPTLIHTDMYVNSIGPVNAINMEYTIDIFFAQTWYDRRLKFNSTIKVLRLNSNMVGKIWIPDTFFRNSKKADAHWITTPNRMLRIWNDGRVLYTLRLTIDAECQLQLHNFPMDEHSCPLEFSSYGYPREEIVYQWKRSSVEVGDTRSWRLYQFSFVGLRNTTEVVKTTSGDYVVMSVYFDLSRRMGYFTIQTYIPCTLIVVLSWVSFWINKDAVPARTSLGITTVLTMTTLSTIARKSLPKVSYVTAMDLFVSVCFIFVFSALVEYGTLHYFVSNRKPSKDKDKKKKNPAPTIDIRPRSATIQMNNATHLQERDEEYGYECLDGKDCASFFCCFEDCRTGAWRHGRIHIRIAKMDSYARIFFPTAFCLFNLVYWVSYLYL
UniProt P19969, sequence (whole entry, looked up): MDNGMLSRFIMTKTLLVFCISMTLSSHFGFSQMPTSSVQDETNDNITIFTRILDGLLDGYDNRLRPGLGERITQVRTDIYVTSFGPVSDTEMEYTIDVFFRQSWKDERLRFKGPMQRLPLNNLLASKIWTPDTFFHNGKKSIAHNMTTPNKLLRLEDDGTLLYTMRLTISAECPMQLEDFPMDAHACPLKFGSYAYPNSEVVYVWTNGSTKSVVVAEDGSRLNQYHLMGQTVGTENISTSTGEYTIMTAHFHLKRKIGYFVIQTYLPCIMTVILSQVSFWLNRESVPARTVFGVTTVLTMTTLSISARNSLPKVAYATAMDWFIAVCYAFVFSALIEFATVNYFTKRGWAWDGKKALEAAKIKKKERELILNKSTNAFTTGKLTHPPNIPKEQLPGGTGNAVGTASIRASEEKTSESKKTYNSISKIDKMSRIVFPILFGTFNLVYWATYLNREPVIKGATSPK
UniProt P35372, sequence (whole entry, looked up): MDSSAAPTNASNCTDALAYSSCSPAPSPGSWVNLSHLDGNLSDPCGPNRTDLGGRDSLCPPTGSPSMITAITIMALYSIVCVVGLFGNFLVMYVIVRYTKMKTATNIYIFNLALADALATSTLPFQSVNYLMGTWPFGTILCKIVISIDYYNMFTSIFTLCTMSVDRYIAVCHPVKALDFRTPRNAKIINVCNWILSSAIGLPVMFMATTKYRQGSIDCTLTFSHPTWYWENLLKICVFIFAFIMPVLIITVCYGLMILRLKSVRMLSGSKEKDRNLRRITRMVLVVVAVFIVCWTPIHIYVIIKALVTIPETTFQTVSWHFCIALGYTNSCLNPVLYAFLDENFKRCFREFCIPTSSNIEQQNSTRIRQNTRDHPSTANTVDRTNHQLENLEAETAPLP
UniProt P25084, sequence (whole entry, looked up): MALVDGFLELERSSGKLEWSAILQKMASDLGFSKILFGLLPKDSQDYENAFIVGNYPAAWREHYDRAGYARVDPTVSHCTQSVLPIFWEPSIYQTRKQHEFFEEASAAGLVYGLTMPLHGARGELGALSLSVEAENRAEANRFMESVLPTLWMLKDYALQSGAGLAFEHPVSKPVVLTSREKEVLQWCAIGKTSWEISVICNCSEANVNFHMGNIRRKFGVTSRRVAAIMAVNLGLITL

Structure (SMILES) | tested on | assay | test system | setting | how to read | measurement | result
CC1(Cc2ccncc2)COc2cc(C(=O)N3CCCCC3)ccc21 (centres unmarked) | CNR2 | GTPγS binding, agonist, radiometric | – | – | – | Emax | 62.5%
CN[C@@](C)(C[18F])C(=O)O | DU-145 tumour model | – | host not given, pancreas | 15 min, tumour-bearing | – | tracer uptake | 51 %ID/g
NC(=O)c1ccc(CNC(=O)c2nn(Cc3ccc(F)cc3)c3ccccc23)cc1 | CNR2 | calcium mobilization, agonist | CHO-K1 expressing Gαq16 | – | baseline: CP55,940 maximum | Emax | 13 ± 1%
C[C@@H](NC(=O)[C@@H](N)Cc1ccc(O)cc1)C(=O)NCC(=O)N(C)[C@@H](Cc1ccccc1)C(=O)NCCO | Oprm1 | GTPγS binding, agonist, radiometric | – | cell membranes | – | Emax | 99.4%
CN1Cc2ccccc2[C@@H]2c3cccc4[nH]cc(c34)C[C@H]21 | DRD1 | cAMP, agonist | – | – | – | Emax | 85%
CCCCCCCCCC(=O)CC(=O)N[C@H]1CCOC1=O | Transcriptional activator protein LasR (lasR, Pseudomonas aeruginosa, UniProt P25084) | reporter gene, agonist | Escherichia coli lasI-lacZ reporter | – | baseline: OdDHL | Emax | 98%
NC(=O)c1cccc(C2(NC(=O)c3nn(Cc4ccc(F)cc4)c4ccccc34)CC2)c1 | CNR2 | calcium mobilization, agonist | CHO-K1 expressing Gαq16 | – | baseline: CP55,940 maximum | Emax | 44 ± 5%
CC(C)(C)OC(=O)c1ncn2c1[C@@H]1CCCN1C(=O)c1c(Br)cccc1-2 | Gabrg2/Gabra5 with β3 subunit | GABA-induced chloride current, two-electrode voltage clamp | Xenopus oocytes | with: GABA at EC3 | – | Emax | 228 ± 23%
NC(=O)[C@@H]1CSSC[C@@H](NC(=O)[C@@H](N)Cc2ccc(O)cc2)C(=O)N[C@@H](Cc2cccc3ccccc23)C(=O)N[C@@H](Cc2ccccc2)C(=O)N1 | Oprm1 | agonist | C6 cells, membranes | – | baseline: 10 µM DAMGO | Emax | 31 to 34%
Cc1nnc2ccc(-c3cccc(C(F)(F)F)c3)nn12 | Gabrg2/Gabra5 with β3 subunit | GABA-induced chloride current, two-electrode voltage clamp | Xenopus oocytes | with: GABA at EC3 | – | Emax | 128 ± 2%
C[C@H](NC(=O)c1nn(Cc2ccc(F)cc2)c2ccccc12)c1cccc(C(N)=O)c1 | CNR2 | calcium mobilization, agonist | CHO-K1 expressing Gαq16 | – | baseline: CP55,940 maximum | Emax | 48%
CCC/C=C/CC1(C)COc2cc(C(=O)NC3CCCCC3)ccc21 (centres unmarked) | CNR2 | GTPγS binding, agonist, radiometric | – | – | – | Emax | 105%
CC(F)(F)CCCn1nc(C(=O)NC(C)(C)c2cccc(C(N)=O)c2)c2ccccc21 | CNR2 | calcium mobilization, agonist | CHO-K1 expressing Gαq16 | – | baseline: CP55,940 maximum | Emax | 33 ± 7%
NC(=O)[C@@H]1CSCSC[C@@H](NC(=O)[C@@H](N)Cc2ccc(O)cc2)C(=O)N[C@@H](Cc2ccc3ccccc3c2)C(=O)N[C@@H](Cc2ccccc2)C(=O)N1 | Oprm1 | agonist | C6 cells, membranes | – | baseline: 10 µM DAMGO | Emax | 31 to 34%
CNC(=O)c1cc2c(cn1)[nH]c1ccccc12 | Gabrg2/Gabra5 with β3 subunit | GABA-induced chloride current, two-electrode voltage clamp | Xenopus oocytes | with: GABA at EC3 | – | Emax | 84 ± 1%
CC(=O)Nc1cccc(C(C)(C)NC(=O)c2nn(Cc3ccc(F)cc3)c3ccccc23)c1 | CNR2 | calcium mobilization, agonist | CHO-K1 expressing Gαq16 | – | baseline: CP55,940 maximum | Emax | 67 ± 1%
NC(=O)c1cc(N2C3CCC2CN(CCCc2ccccc2)C3)ccc1F | Mu-type opioid receptor (OPRM1, Homo sapiens, UniProt P35372) | agonist | – | – | – | Emax | 10.7%
CC(C)(NC(=O)c1nn(CCCCC(F)(F)F)c2ccccc12)c1cccc(C(N)=O)c1 | CNR2 | calcium mobilization, agonist | CHO-K1 expressing Gαq16 | – | baseline: CP55,940 maximum | Emax | 40 ± 1%
C#CCN(C)C[C@@H]1C=C2c3cccc4[nH]cc(c34)C[C@H]2N(C)C1 | DRD1 | cAMP, agonist | – | – | – | Emax | 61%
CC1(Cc2ccc(Cl)cc2)COc2cc(C(=O)N3CCCCC3)ccc21 (centres unmarked) | CNR2 | GTPγS binding, agonist, radiometric | – | – | – | Emax | 102%

A few entries again:
Structure (SMILES) | tested on | assay | test system | setting | how to read | measurement | result
C[C@@H](NC(=O)[C@@H](N)Cc1ccc(O)cc1)C(=O)NCC(=O)N(C)[C@@H](Cc1ccccc1)C(=O)NCCO | Oprm1 | GTPγS binding, agonist, radiometric | – | cell membranes | – | Emax | 99.4%
NC(=O)c1cc(N2C3CCC2CN(CCCc2ccccc2)C3)ccc1F | Mu-type opioid receptor (OPRM1, Homo sapiens, UniProt P35372) | agonist | – | – | – | Emax | 10.7%
